# Measured values from different studies.
# Each line is one published result; not all experiments were run side by side. ± marks the error that the study gave.
SMILES,target,assay,system,conditions,IC50
O=C(Nc1ccc(S(=O)(=O)Nc2nccs2)cc1)c1cc(-c2ccccc2)nc2ccccc12,ChREBP human,"reporter gene, inhibitor, LPK promoter luciferase",HepG2,together with: high glucose,~1000 nM
Oc1ccc(-c2cc(-c3ccc(OCCN4CCCCC4)cc3)n(-c3ccc(O)cc3)n2)cc1,TLR9,"TNF-alpha production, antagonist, ELISA",RAW264.7,"6 h, together with: CpG-DNA 1 µM",1470 ± 250 nM
COc1cc(CCC(C)=O)ccc1O,mouse mAb 1-D6,"antibody binding, indirect competitive ELISA",,,0.165 µg/mL
CN[C@@H]1[C@H](O)[C@H](NC)[C@H]2O[C@]3(O)[C@H](O[C@@H]2[C@H]1O)O[C@H](C)C[C@@]3(O)CNCCc1cccs1,Mycolicibacterium smegmatis ribosome,cell-free translation,,,1640 ± 360 nM
COc1cc(C(=O)c2[nH]c(N)nc2-c2cccs2)cc(OC)c1OC,MAP-rich tubulin,"polymerization, inhibitor, light scattering",,37 °C,63000 ± 27000 nM
CCCCC/C=C/C(=O)CCc1ccc(O)c(OC)c1,mAb 5-D8,"antibody binding, indirect competitive ELISA",,together with: coating antigen hapten 3-OVA,> 4 µg/mL
CN[C@@H]1[C@H](O)[C@H](NC)[C@H]2O[C@]3(O)[C@H](O[C@@H]2[C@H]1O)O[C@H](C)C[C@@]3(O)CNCCc1ccc(F)cc1,Mycolicibacterium smegmatis ribosome,cell-free translation,,,1010 ± 210 nM
N=C(N)c1ccc(-c2ccc(-c3nc4ccc(C(=N)N)cc4[nH]3)[se]2)cc1,PU.1 ETS domain (mouse),"protein-DNA binding, inhibitor, surface plasmon resonance",,together with: λB site DNA hairpin,50 nM
CN[C@@H]1[C@H](O)[C@H](NC)[C@H]2O[C@]3(O)[C@H](O[C@@H]2[C@H]1O)O[C@H](C)C[C@@]3(O)CNCCC1CCOCC1,Mycolicibacterium smegmatis ribosome,cell-free translation,,,1150 ± 400 nM
Oc1ccc(-c2cc(-c3ccc(OCCCN4CCCCC4)cc3)n(-c3ccc(O)cc3)n2)cc1,TLR9,"TNF-alpha production, antagonist, ELISA",RAW264.7,"6 h, together with: CpG-DNA 1 µM",1440 ± 270 nM
CN[C@@H]1[C@H](O)[C@H](NC)[C@H]2O[C@]3(O)[C@H](O[C@@H]2[C@H]1O)O[C@H](C)C[C@]3(O)CNCCc1nccs1,Mycolicibacterium smegmatis ribosome,cell-free translation,,,32000 ± 31000 nM
CCCc1c(-c2ccc(O)cc2)nn(-c2ccc(O)cc2)c1-c1ccc(OCCN2CCCCC2)cc1,TLR9,"TNF-alpha production, antagonist, ELISA",RAW264.7,"6 h, together with: CpG-DNA 1 µM",4720 ± 150 nM
COC(=O)c1ccc2c(c1)NC(=O)/C2=C(\Nc1ccc(N(C)C(=O)CN2CCN(CCCCNC(=O)CCc3cn(CCCCN4C[C@@H]5C[C@H]4C(=O)N[C@@H](CC(C)C)C(=O)N[C@@H](CCCNC(=N)N)C(=O)NCC(=O)N[C@@H](CC(=O)O)C(=O)N[C@@H](CC(C)C)C(=O)N5)nn3)CC2)cc1)c1ccccc1,integrin αVβ6 (mouse),cell adhesion to fibronectin,L929,30 min preincubation,< 1000 nM

# For quick reference, copied from above:
SMILES,target,assay,system,conditions,IC50
COc1cc(C(=O)c2[nH]c(N)nc2-c2cccs2)cc(OC)c1OC,MAP-rich tubulin,"polymerization, inhibitor, light scattering",,37 °C,63000 ± 27000 nM
CCCCC/C=C/C(=O)CCc1ccc(O)c(OC)c1,mAb 5-D8,"antibody binding, indirect competitive ELISA",,together with: coating antigen hapten 3-OVA,> 4 µg/mL
